Published values pooled from the literature.
Each numbered part is a random draw from the data of one study; scales do not carry over between parts. Changes are numbered by the printed parent chain.

Sample 1 — technique: universal PBM; molecule type: double-stranded DNA, one strand shown; medium: in vitro; concentration: 600 nM; reading: higher = stronger binding
Target: Sal-like protein 4, full length isoform A (SALL4, Homo sapiens, UniProt Q9UJQ4, residues 1-1053)
UniProt Q9UJQ4, sequence (whole entry, looked up): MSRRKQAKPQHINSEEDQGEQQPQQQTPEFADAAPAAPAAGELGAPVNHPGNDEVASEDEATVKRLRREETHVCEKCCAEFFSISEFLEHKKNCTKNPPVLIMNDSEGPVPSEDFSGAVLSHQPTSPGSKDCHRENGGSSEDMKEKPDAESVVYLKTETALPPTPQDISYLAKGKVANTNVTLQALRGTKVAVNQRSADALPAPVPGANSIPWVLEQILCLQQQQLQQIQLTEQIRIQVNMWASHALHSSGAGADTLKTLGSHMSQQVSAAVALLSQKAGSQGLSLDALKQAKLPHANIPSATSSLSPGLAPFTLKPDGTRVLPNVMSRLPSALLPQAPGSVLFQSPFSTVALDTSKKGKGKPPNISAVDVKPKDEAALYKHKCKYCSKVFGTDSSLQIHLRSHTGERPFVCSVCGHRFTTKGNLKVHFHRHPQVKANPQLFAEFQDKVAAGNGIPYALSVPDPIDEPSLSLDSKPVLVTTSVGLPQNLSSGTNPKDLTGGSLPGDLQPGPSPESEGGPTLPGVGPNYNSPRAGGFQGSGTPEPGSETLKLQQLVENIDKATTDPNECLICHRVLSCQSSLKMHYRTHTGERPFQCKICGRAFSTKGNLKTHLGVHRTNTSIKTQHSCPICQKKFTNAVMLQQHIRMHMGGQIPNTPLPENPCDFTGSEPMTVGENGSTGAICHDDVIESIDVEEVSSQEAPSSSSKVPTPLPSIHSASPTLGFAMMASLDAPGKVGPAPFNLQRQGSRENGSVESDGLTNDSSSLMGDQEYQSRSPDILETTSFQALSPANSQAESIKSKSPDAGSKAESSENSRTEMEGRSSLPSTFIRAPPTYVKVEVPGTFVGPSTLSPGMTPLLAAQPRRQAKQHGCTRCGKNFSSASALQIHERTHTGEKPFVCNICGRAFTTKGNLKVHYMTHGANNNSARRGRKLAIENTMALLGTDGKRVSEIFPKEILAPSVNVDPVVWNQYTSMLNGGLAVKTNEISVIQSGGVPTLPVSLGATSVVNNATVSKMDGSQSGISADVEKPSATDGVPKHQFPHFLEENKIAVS
Notes: 8-mer, flanks averaged, mean of replicates
Sequence | E-score
CATGGTCC | -0.29
GTTACGCA | 0.0426
CACTTTAG | 0.0127
ACTAAGCT | -0.0217
AGGTTTAG | -0.026
CCAACTGA | -0.03
ATTCATGA | 0.157
ACGTTGGA | -0.12
CTTCGCCC | -0.232
CAACGAGA | 0.151
TCTATGAA | 0.23
GGTACGCA | 0.0232
ATCGCTCA | -0.111
GATCGCGC | -0.185

Sample 2 — technique: RNA Bind-n-Seq; molecule type: RNA; medium: in vitro; concentration: 100 nM; reference: input RNA pool; reading: higher = stronger binding
Target: RING finger protein unkempt homolog, zinc fingers 1-6, SBP tag (UNK, Homo sapiens, UniProt Q9C0B0, residues 30-357)
UniProt Q9C0B0, sequence (30-357, looked up): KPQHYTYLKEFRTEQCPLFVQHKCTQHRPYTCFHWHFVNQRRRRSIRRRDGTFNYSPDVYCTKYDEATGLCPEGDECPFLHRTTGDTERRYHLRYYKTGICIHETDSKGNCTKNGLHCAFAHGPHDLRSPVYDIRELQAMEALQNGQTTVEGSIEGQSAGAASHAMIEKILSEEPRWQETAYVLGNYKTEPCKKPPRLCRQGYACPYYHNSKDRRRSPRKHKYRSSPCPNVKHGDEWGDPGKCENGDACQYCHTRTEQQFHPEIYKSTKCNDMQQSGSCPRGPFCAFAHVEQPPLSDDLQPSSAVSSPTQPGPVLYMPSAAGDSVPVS
Notes: RNA with constant flanks, vertebrate orthologous sites, ends assumed
Sequence | bound/input enrichment
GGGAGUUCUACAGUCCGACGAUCUCCAAGCACCCUGGUCAAGACUGUGGACUGGCUGCUUGUAUUCUCCUUAUUCUUUUUAAUUAGUUUCAUUAUGUAUGCUACCAUCCGGACUGAGAGCAUUCGGUGGCUGAUUCCGGGGCACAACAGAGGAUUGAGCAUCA | 3.3 ratio
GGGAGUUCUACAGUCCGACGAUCUGAAAAUAGCUUCUGCUCCAUUGAGAGUAAAAAUAGUCCCAUGAAUAGAAAACUCCUAAUGAACUAUUUUUUAAAUAAAAAACGUUAAAUUUUGUAAAUCACCUGCUGCCACAAUACAACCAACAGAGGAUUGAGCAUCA | 0.868 ratio
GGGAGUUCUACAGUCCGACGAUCCAUUUAGAGUCGGAAUAAAUGGCUCCAGGAUUCACGACAUCGUUCUGUGGGAUCAGACUGCAGGACGGAGACUCUCUUUAAAUUUAUAUGCUGUUUCCAAACUUACGUUGGAAGACGUUUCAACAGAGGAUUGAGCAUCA | 0.465 ratio
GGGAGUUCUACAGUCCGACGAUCAGUAUCCCAGUUGUACCGUGUUGGGUUGGCAUUGUACAGAAAUUAACAGCCAUAUUGGUCUAGAAACAUUAAACAUAAUUUUUUCCAUUUGUACAGGGGUAACGCACUGUAUUAAAUAUGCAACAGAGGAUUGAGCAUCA | 1.6 ratio
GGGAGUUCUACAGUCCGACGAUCUUUUAAAGCCAUUUUUCAUGUUUCCUGUAAAUAAAGGAUAAUCAUUUUUAUUUUGUUUUCAAGUGCUGUUUUAACAAUGUGGAUAGACCAUAAAUGUACUUGCUGAAUUCAUUCAUUUUUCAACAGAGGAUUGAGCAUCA | 0.366 ratio
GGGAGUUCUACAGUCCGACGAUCUCAACUCAGGUUUUAUUUAUUUUGAAAUCAUCGGUUAUAUAAACCUAAUUUAUUACCAAAUAUGAUGGUCUUUAAAAAUAUUUUUACUGUUGAAACUUACGUAGGUAUUUGAUAUCCUUUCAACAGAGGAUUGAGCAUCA | 0.0763 ratio
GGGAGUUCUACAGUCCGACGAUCUUGUACUACAAAAAAUCAUCCUAGUUUUUUAAGCUAACUACAGUGAUAACUAGUCUGUGCUAGUAGAAUCAUUUACUAUUACUUUUUAAAUUAUCUGCUUUGUCUGAUACCUGAAACCACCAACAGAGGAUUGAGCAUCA | 0.945 ratio
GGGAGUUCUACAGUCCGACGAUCCAAGCUCAUUAAGAAAAGCAAUUUUAAAACUGUAUUUAUUUAUGUUUGUAAACUUGUACAUAGUAACAACCCUGCAAAUGUUCUGUUACUCGAUUUUACAUCUUUUAGGUUCUUUUAGGGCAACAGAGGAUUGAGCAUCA | 0.788 ratio

Sample 3 — target: CCND3, cyclin fold, Cln2 fusion (human); technique: yeast growth competition, sequencing; medium: yeast; notes: weak parent motif; reference: not given; reading: higher = stronger binding
Starting sequence: RBL1 docking peptide (human); GSAKRRLFGEDPP; partner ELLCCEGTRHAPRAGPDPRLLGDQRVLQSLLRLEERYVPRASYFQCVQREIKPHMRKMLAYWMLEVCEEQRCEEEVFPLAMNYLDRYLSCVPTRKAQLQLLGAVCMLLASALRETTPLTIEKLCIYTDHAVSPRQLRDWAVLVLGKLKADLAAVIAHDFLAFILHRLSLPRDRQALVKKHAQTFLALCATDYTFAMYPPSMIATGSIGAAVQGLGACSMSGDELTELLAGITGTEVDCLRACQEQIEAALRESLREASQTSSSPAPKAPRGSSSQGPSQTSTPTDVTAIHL
Change | normalised enrichment score
G9E | 0.125
P13I | 0.0826
S2W | 0.0416
R5Q | 0.14
G9W | 0.209
F8E | 0.0826
K4S | 0.0918
S2H | 0.161

Sample 4 — technique: aptamer microarray, sandwich; molecule type: DNA with 2'F-ANA; medium: in vitro; concentration: 200 nM; together with: Cy3 exosite-II aptamer, 400 nM; reading: higher = stronger binding; sequence: GGTTGGTGTGGTTGG
Target: Prothrombin, mature alpha-thrombin (F2, Homo sapiens, UniProt P00734)
Notes: whole 15-mer aptamer, many near background
Modification | mean fluorescence intensity [a.u.]
2'F-ANA at 2 3 4 10 11 13 14 | 174
2'F-ANA at 4 9 10 13 14 15 | 74
2'F-ANA at 4 5 7 9 10 12 13 | 88.3
2'F-ANA at 8 10 11 15 | 158
2'F-ANA at 1 2 3 5 8 9 10 11 15 | 48.8
2'F-ANA at 2 3 4 5 8 9 10 11 12 15 | 55.6
2'F-ANA at 1 2 3 4 5 9 10 13 15 | 47.5
2'F-ANA at 3 4 5 11 13 | 64.2
2'F-ANA at 4 5 9 10 13 14 | 45.2
2'F-ANA at 2 7 8 10 12 14 15 | 103
2'F-ANA at 3 4 5 7 8 11 12 | 204
2'F-ANA at 4 7 10 12 14 | 66.3
2'F-ANA at 2 11 12 13 15 | 582
2'F-ANA at 2 3 5 7 8 9 10 11 12 14 | 211
2'F-ANA at 1 3 5 11 12 13 15 | 83.4
2'F-ANA at 2 4 7 8 9 10 11 13 15 | 73.8
2'F-ANA at 3 4 5 10 11 12 14 | 49.2
2'F-ANA at 1 2 3 4 6 9 10 12 13 14 15 | 53.5

Mixed results
Molecule | target | assay | system | setting | how to read | quantity | value
PhoQ, residues 284 288 289 292 302 303 ASTSDA | PhoP, residues 12 14 15 18 19 SYFRT (Escherichia coli, UniProt P23836) | Sort-seq, refers to: YFP reporter | E. coli | PhoQ-PhoP variant library, together with: 10 µM Mg2+ | reference: high Mg2+ state, higher = stronger signaling | fold induction | 2.25

Some of these lines once more (sample 2):
Sequence | bound/input enrichment
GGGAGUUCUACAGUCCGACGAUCUCCAAGCACCCUGGUCAAGACUGUGGACUGGCUGCUUGUAUUCUCCUUAUUCUUUUUAAUUAGUUUCAUUAUGUAUGCUACCAUCCGGACUGAGAGCAUUCGGUGGCUGAUUCCGGGGCACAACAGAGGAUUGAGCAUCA | 3.3 ratio
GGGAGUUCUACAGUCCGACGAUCUGAAAAUAGCUUCUGCUCCAUUGAGAGUAAAAAUAGUCCCAUGAAUAGAAAACUCCUAAUGAACUAUUUUUUAAAUAAAAAACGUUAAAUUUUGUAAAUCACCUGCUGCCACAAUACAACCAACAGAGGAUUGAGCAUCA | 0.868 ratio
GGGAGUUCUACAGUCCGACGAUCCAUUUAGAGUCGGAAUAAAUGGCUCCAGGAUUCACGACAUCGUUCUGUGGGAUCAGACUGCAGGACGGAGACUCUCUUUAAAUUUAUAUGCUGUUUCCAAACUUACGUUGGAAGACGUUUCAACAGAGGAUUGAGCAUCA | 0.465 ratio
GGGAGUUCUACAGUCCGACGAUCAGUAUCCCAGUUGUACCGUGUUGGGUUGGCAUUGUACAGAAAUUAACAGCCAUAUUGGUCUAGAAACAUUAAACAUAAUUUUUUCCAUUUGUACAGGGGUAACGCACUGUAUUAAAUAUGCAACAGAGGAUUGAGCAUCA | 1.6 ratio
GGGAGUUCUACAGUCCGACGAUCUUUUAAAGCCAUUUUUCAUGUUUCCUGUAAAUAAAGGAUAAUCAUUUUUAUUUUGUUUUCAAGUGCUGUUUUAACAAUGUGGAUAGACCAUAAAUGUACUUGCUGAAUUCAUUCAUUUUUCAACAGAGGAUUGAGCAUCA | 0.366 ratio
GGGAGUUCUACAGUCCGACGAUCUCAACUCAGGUUUUAUUUAUUUUGAAAUCAUCGGUUAUAUAAACCUAAUUUAUUACCAAAUAUGAUGGUCUUUAAAAAUAUUUUUACUGUUGAAACUUACGUAGGUAUUUGAUAUCCUUUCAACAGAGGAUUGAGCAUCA | 0.0763 ratio
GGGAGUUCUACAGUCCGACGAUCUUGUACUACAAAAAAUCAUCCUAGUUUUUUAAGCUAACUACAGUGAUAACUAGUCUGUGCUAGUAGAAUCAUUUACUAUUACUUUUUAAAUUAUCUGCUUUGUCUGAUACCUGAAACCACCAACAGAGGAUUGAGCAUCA | 0.945 ratio
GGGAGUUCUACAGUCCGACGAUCCAAGCUCAUUAAGAAAAGCAAUUUUAAAACUGUAUUUAUUUAUGUUUGUAAACUUGUACAUAGUAACAACCCUGCAAAUGUUCUGUUACUCGAUUUUACAUCUUUUAGGUUCUUUUAGGGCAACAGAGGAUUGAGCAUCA | 0.788 ratio
